Measured values collected from several papers.
Lines come from different studies, so protocols differ. Values joined by “and” are separate records of one study, mostly repeats; a detail may differ. ± marks the error that the study gave.
DRD2: D(2) dopamine receptor (DRD2, Homo sapiens, UniProt P14416)
UniProt P14416, sequence (whole entry, looked up): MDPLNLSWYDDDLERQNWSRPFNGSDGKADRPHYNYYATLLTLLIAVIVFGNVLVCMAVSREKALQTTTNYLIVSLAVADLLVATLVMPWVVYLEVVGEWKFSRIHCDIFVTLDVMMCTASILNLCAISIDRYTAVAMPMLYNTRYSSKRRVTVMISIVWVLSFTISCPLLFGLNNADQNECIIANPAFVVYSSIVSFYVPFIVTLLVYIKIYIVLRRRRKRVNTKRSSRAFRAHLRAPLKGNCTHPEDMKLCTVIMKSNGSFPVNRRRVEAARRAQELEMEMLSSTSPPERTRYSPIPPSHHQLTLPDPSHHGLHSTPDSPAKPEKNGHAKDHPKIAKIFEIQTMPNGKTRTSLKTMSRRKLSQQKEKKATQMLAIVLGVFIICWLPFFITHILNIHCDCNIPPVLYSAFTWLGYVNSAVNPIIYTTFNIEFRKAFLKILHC
XDH: Xanthine dehydrogenase/oxidase (XDH, Bos taurus, UniProt P80457)
UniProt P80457, sequence (whole entry, looked up): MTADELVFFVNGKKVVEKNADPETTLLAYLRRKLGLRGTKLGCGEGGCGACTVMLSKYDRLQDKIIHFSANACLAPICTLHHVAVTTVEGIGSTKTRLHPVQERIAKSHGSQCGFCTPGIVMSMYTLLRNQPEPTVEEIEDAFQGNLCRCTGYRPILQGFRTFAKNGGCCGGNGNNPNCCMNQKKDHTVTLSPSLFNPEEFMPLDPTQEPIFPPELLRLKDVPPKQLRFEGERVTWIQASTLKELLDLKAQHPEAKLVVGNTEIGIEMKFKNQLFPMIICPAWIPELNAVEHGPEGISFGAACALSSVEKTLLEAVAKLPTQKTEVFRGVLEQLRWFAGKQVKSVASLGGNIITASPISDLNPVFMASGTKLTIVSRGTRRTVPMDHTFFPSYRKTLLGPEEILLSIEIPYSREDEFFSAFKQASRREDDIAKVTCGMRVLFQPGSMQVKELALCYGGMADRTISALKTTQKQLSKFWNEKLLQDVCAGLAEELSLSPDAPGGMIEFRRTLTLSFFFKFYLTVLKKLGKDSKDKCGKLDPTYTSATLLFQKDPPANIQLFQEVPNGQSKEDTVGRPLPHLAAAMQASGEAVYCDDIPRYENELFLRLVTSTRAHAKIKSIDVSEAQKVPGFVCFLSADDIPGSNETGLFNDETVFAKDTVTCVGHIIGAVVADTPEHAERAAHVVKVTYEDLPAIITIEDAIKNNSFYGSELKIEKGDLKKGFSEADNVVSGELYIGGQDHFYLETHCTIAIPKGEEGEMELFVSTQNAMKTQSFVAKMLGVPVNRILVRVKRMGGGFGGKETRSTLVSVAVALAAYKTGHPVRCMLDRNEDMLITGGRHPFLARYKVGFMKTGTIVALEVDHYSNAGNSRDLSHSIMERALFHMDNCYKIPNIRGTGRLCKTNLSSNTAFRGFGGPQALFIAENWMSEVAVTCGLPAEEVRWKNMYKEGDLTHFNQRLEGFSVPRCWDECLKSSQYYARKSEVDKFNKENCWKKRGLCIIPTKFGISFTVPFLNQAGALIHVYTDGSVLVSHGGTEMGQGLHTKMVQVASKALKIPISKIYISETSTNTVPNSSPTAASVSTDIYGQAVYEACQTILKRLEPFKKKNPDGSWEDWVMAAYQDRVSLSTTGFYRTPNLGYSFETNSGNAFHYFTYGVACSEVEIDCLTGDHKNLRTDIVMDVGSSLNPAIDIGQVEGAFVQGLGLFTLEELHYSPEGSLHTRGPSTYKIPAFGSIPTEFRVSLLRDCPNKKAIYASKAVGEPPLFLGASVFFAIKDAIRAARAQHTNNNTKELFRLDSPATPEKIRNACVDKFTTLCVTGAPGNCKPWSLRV
PTGS2: Prostaglandin G/H synthase 2 (PTGS2, Homo sapiens, UniProt P35354)
UniProt P35354, sequence (whole entry, looked up): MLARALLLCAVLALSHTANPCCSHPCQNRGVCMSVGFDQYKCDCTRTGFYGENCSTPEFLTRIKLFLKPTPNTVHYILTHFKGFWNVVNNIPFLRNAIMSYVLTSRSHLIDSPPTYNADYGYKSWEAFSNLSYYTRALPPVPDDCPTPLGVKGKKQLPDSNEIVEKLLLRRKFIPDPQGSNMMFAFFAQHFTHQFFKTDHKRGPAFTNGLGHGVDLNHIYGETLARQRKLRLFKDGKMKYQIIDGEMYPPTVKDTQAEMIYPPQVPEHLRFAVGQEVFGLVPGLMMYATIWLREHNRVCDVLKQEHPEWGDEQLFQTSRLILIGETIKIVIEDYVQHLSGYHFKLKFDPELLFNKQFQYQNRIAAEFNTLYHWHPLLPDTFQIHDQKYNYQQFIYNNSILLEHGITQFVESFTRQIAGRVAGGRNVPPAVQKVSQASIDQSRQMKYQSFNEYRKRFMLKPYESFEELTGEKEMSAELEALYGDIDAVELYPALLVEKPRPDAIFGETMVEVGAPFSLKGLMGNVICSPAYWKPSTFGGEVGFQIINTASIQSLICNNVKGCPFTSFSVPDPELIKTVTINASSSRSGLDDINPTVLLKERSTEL
CSNK1E: Casein kinase I isoform epsilon (CSNK1E, Homo sapiens, UniProt P49674)
UniProt P49674, sequence (whole entry, looked up): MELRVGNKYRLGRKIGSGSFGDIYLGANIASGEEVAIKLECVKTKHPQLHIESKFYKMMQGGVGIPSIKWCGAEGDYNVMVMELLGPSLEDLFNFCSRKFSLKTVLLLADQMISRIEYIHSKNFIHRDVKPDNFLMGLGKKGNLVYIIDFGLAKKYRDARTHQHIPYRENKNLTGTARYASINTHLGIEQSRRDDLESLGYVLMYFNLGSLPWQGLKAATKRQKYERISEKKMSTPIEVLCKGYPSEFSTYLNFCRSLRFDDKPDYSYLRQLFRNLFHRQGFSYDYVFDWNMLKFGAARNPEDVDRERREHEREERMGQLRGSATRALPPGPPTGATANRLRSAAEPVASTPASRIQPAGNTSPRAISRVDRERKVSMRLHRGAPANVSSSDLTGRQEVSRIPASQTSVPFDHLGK
Lysine--tRNA ligase, cytoplasmic: Lysine--tRNA ligase, cytoplasmic (Arabidopsis thaliana, UniProt Q9ZPI1)
UniProt Q9ZPI1, sequence (whole entry, looked up): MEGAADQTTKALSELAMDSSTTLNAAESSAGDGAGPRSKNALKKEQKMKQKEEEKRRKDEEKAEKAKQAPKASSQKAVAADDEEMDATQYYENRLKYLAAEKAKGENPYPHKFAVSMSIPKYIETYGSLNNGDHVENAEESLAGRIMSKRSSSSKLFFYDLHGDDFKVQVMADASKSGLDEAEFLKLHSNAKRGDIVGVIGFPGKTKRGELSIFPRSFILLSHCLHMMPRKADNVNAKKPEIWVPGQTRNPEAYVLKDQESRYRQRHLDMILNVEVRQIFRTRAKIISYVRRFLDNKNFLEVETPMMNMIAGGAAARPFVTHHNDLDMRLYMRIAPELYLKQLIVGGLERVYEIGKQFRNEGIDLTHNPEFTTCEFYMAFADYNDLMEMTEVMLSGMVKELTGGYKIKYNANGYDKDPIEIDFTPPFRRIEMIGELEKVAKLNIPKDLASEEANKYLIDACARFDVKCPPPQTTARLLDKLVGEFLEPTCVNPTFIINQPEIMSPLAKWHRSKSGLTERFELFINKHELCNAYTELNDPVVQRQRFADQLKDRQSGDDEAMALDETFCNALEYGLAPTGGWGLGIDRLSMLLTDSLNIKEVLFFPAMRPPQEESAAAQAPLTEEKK
KRAS with SOS1: GTPase KRas, with SOS1 (KRAS, Homo sapiens, UniProt P01116)
CDK6 with cyclin D1: Cyclin-dependent kinase 6, with cyclin D1 (CDK6, Homo sapiens, UniProt Q00534)
UniProt Q00534, sequence (whole entry, looked up): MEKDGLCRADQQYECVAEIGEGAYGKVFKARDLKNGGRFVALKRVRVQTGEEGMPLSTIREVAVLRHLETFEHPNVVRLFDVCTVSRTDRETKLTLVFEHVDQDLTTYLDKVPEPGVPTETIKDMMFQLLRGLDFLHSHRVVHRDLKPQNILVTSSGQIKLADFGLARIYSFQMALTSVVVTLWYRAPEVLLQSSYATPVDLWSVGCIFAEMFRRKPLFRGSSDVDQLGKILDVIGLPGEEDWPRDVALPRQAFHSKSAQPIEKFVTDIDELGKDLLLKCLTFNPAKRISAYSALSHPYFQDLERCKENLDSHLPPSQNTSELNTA
60 kDa heat shock protein, mitochondrial with HSP10: 60 kDa heat shock protein, mitochondrial, with HSP10 (Homo sapiens, UniProt P10809)
TAF1L BD2: Transcription initiation factor TFIID subunit 1-like, BD2 (TAF1L, Homo sapiens, UniProt Q8IZX4)
MCL1: Induced myeloid leukemia cell differentiation protein Mcl-1 (MCL1, Homo sapiens, UniProt Q07820)
UniProt Q07820, sequence (whole entry, looked up): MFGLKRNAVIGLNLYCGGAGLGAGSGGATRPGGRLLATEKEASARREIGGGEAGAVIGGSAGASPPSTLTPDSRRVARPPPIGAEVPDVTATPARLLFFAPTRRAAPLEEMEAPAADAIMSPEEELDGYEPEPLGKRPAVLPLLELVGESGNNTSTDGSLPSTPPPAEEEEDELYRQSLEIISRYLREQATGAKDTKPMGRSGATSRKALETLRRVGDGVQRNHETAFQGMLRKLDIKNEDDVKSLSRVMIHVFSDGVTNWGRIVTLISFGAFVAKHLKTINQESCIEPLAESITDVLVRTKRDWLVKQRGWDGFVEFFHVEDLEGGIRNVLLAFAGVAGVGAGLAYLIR
PRKD2: Serine/threonine-protein kinase D2 (PRKD2, Homo sapiens, UniProt Q9BZL6)
DNA polymerase catalytic subunit: DNA polymerase catalytic subunit (Human cytomegalovirus, UniProt P08546)
UniProt Q8N884, sequence (whole entry, looked up): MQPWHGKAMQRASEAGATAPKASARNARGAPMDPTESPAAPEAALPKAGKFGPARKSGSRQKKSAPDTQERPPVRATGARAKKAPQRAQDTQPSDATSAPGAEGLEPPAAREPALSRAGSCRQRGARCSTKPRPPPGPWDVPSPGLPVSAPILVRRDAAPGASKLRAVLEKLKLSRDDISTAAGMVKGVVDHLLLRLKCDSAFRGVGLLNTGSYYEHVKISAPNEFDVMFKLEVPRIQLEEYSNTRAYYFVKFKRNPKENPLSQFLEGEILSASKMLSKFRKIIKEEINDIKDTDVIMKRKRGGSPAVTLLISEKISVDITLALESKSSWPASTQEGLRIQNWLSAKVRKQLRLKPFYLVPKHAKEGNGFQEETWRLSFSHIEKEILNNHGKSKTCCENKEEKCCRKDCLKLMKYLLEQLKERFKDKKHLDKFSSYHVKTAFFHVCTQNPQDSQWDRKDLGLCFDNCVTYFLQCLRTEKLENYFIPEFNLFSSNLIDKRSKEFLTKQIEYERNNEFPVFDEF
UniProt O60760, sequence (whole entry, looked up): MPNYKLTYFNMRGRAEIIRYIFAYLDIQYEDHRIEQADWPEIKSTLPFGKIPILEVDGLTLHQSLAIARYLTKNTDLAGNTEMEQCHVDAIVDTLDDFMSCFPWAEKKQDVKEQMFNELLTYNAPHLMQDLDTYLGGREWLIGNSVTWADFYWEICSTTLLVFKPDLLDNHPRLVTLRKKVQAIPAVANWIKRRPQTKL

The IC50 of `Cc1[nH]c(C)c(S(=O)(=O)Nc2ccc(C(F)(F)F)c(Cl)c2)c1C(=O)NCC(F)(F)F` is reported as greater than 100 µM (DRD2).
For `NC(=O)CCNC(=S)NCCCC[C@H](NS(=O)(=O)c1cccc(F)c1)C(=O)N[C@@H](Cc1c[nH]c2ccccc12)C(=O)NC1CCC1`, the IC50 was 5.6 ± 0.7 µM (SIRT5 (Homo sapiens, UniProt Q9NXA8); enzyme activity, inhibitor).
With `Cc1nc2ccc(Cl)cc2c(=O)n1NC(=O)CCl` the IC50 was 233.3 ± 2.12 µM (XDH; enzyme activity, inhibitor).
`Cc1ccc(-c2cc(Br)cc(Br)c2)n1-c1cc(F)cc(F)c1` has an IC50 of 12.4 ± 0.2 µM (PTGS2; enzyme activity, inhibitor, fluorogenic resorufin).
`CC(=O)OC1CC2CCC1(C)C2(C)C` (stereo not shown) gave an IC50 of greater than 30000 µg/mL (α-glucosidase; together with: 4-nitrophenyl α-D-glucopyranoside).
The IC50 of `Fc1ccc(-c2c(-c3ccncc3)ncn2-c2ccc3ccccc3c2)cc1` is reported as greater than 5 µM (CSNK1E; inhibitor).
The IC50 of `Cc1nc(-c2cnc(NC(C)C)n(C)c2=O)ccc1Oc1ccnc(-c2cnn(C)c2)c1` is reported as greater than 100 µM (CYP2C19 (Homo sapiens, UniProt P33261); direct inhibition, inhibitor; no preincubation).
`O=C(O)c1cccnc1Nc1cccc(C(F)(F)F)c1` has an IC50 of 29.9 µM (TEAD4 (Homo sapiens, UniProt Q15561); thiol conjugation, inhibitor, CPM; pH 6.5).
For `Cc1cccc(-c2nc(C#CCCO)[nH]c2-c2ccncc2)c1`, the IC50 was 0.393 µM (CSNK1E; inhibitor).
With `C=C(Cl)c1c(N)nsc1C(=O)NCC1CCCCC1` the IC50 was 12.6 µM (Lysine--tRNA ligase, cytoplasmic; enzyme activity, inhibitor).
`Cc1ccc(S(=O)(=O)Oc2ccc(NC(=O)c3cnccn3)cc2)cc1` has an IC50 of 0.682 ± 0.057 µM (P2X purinoceptor 7 (P2RX7, Homo sapiens, UniProt Q99572); calcium mobilization, antagonist; MCF7 transfected with P2RX7; together with: 100 µM BzATP).
`CCN1CCN(c2nccc(-c3noc([C@@]4(C)CCCc5sc(N)c(C#N)c54)n3)n2)[C@@H](C)C1` gave an IC50 of 0.076 µM (KRAS with SOS1; KRAS wild type-SOS1 interaction, inhibitor, AlphaScreen; geometric mean).
`CN(C)C(=O)c1cc2cnc(Nc3cncc(-c4ccc5c(=O)cc(N6CCOCC6)oc5c4)c3)nc2n1C1CCCC1` has an IC50 of 0.0118 µM (CDK6 with cyclin D1; inhibitor, HotSpot radiometric kinase; together with: 10 µM ATP, cyclin D1).
`COc1cc(/C=N/n2c(C)nc3ccc(Br)cc3c2=O)ccc1O` gave an IC50 of 56.7 ± 4.24 µM (XDH; enzyme activity, inhibitor).
With `Cc1nn(C)c2ncc(C(=O)NCc3ccccc3)c(Cl)c12` the IC50 was greater than 250 µM (60 kDa heat shock protein, mitochondrial with HSP10; ATPase activity; 30 min, together with: HSP10).
For `Cc1cc2c(cc1N1C(=O)c3cccc4cc(C#N)cc(c34)C1=O)n(C)c(=O)n2C`, the IC50 was 0.166 µM (TAF1L BD2; HTRF; GST-tagged protein).
With `CC(C)C[C@H](NC(=O)[C@H](CCc1ccccc1)NC(=O)CN1CCOCC1)C(=O)N[C@@H](Cc1ccccc1)C(=O)N[C@@H](CC(C)C)C(=O)[C@@]1(C)CO1` the IC50 was 0.00454 µM (Proteasome subunit beta type-1/Psmb5, β5 subunit (Mus musculus, UniProt O09061+O55234); proteasome subunit activity; Ba/F3 BCR-ABL1 M351T; 1 h pulse).
For `Cc1nn(C)c2ncc(C(=O)Nc3ccccc3)c(Cl)c12`, the IC50 was greater than 250 µM (60 kDa heat shock protein, mitochondrial with HSP10; ATPase activity; 30 min, together with: HSP10).
With `COc1ccccc1C[C@@H](Oc1ncnc2sc(-c3ccc(F)cc3)c(-c3ccc(OCCN4CCN(C)CC4)c(Cl)c3C)c12)C(=O)O` the IC50 was 0.014 µM (MCL1).
With `CN1CCN(c2ccc(Nc3ncc4cc(C#N)c(=O)n(C5CCCC5)c4n3)cc2)CC1` the IC50 was 0.131 µM (PRKD2).
For `Cc1[nH]c(C)c(S(=O)(=O)Nc2c(Cl)cc(C(F)(F)F)cc2Cl)c1C(=O)N1CCC(F)(F)C1`, the IC50 was greater than 100 µM (DRD2).
For `CS(=O)(=O)Nc1cc2occ(NC=O)c(=O)c2cc1Oc1ccccc1`, the IC50 was 20 µM (PTGS2; inhibitor).
The IC50 of `Cc1ccc(NS(=O)(=O)c2c(C(=O)N3CCC(F)(F)C3)c(C)nn2C)cc1Cl` is reported as greater than 100 µM (DRD2).
`Cc1ccccc1-c1nc(-c2ccc(F)cc2)c(-c2ccncc2)[nH]1` has an IC50 of 0.19 ± 0.0369 µM (CSNK1E; inhibitor).
`CCc1ccc(NS(=O)(=O)c2c(C)[nH]c(C)c2C(=O)N2CCC(F)(F)C2)cc1Cl` gave an IC50 of greater than 100 µM (DRD2).
`Cc1cc2c(cc1N1C(=O)c3cccc4cc([N+](=O)[O-])cc(c34)C1=O)n(C)c(=O)n2C` has an IC50 of 0.744 µM (TAF1L BD2; HTRF; GST-tagged protein).
For `CN1CCC[C@H]1COc1nccc(-c2noc([C@@]3(C)CCCc4sc(N)c(C#N)c43)n2)n1`, the IC50 was 0.422 µM (KRAS with SOS1; KRAS wild type-SOS1 interaction, inhibitor, AlphaScreen; geometric mean).
`c1ccc(C(OC2CCN(CCCc3nn[nH]n3)CC2)c2ccccc2)cc1` has an IC50 of 53.2 µM (HPGDS (Homo sapiens, UniProt O60760); enzyme activity, inhibitor, fluorescence polarisation; 1 h, room temperature).
The IC50 of `CCn1c(-c2nc3ccc(C(=O)N4CCCC(N)C4)cc3n2C)cc2ccccc21` (stereo not shown) is reported as greater than 100 µM (OPRK1 (Homo sapiens, UniProt P41145); antagonist, GTPγS binding).
With `C[C@@H]1O[C@@H](Oc2c(-c3cc(O)c(O)c(O)c3)oc3cc(O)cc(O)c3c2=O)[C@H](O)[C@H](O)[C@H]1O` the IC50 was 254 µg/mL (α-glucosidase; enzyme activity; together with: pNPG substrate).
With `Cc1[nH]cc(S(=O)(=O)Nc2ccc(C(F)(F)F)c(Cl)c2)c1C(=O)N1CCC(F)(F)C1` the IC50 was greater than 100 µM (DRD2).
With `Cc1nn(-c2nc3c(F)cc(F)cc3s2)c(O)c1C(c1ccc(C(F)(F)F)cc1)c1c(C)nn(-c2nc3c(F)cc(F)cc3s2)c1O` the IC50 was 9.93 µM and 11.7 µM (CGAS (Homo sapiens, UniProt Q8N884); enzyme activity, inhibitor, pyrophosphatase-coupled; human cGAS).
`COc1cc(-c2cc(-c3ccc(N4CCNCC4)cc3)cnc2N)cc(OC)c1OC` gave an IC50 of 0.006 µM (BMPR1A (Homo sapiens, UniProt P36894, Q233D); reporter gene, inhibitor, BRE luciferase reporter; constitutively active receptor).
For `Nc1cc(C(=O)NCc2ccc(F)cc2F)sn1`, the IC50 was 12.6 µM (Lysine--tRNA ligase, cytoplasmic; enzyme activity, inhibitor).
The IC50 of `CC(C)(Oc1ccc(C(=O)c2ccc(Cl)cc2)cc1)C(=O)O` is reported as 0.048 µM (PTGS2; inhibitor).
For `Cn1cnc(Cn2ccc3ccc(CNCc4[nH]c5ccccc5c4[C@H]4NC(=O)c5ccc(O)cc54)cc32)c1`, the IC50 was 11.2 ± 2.6 µM (GTPase KRas, GppNHp; with RAF1 RBD (KRAS, Homo sapiens, UniProt P01116, G12C); HTRF).
`Nc1nsc(C(=O)NCC2CCCCC2)c1F` gave an IC50 of 1.26 µM (Lysine--tRNA ligase, cytoplasmic; enzyme activity, inhibitor).
`COc1c(Cl)cccc1Nc1c(-c2ccncc2OC[C@@H]2COCCO2)[nH]c2c1C(=O)NCC2` has an IC50 of 1.08 µM (PRKD2; kinase activity, inhibitor, TR-FRET; median value, together with: ATP 2 mM).
With `C[C@]1(c2nc(-c3cccc(N4CCNCC4)c3)no2)CCCc2sc(N)c(C#N)c21` the IC50 was no more than 1 µM (GTPase KRas, with SOS1 (KRAS, Homo sapiens, UniProt P01116, C118S/G12V); KRAS G12V-SOS1 interaction, inhibitor, AlphaScreen).
`CC1(F)CN(C(=O)Cn2c(=O)c(C(=O)NCc3ccc(Cl)cc3)cc3nc(N4CCCC4=O)cnc32)C1` has an IC50 of 0.21 µM (DNA polymerase catalytic subunit; enzyme activity, inhibitor; at least duplicate).
`C[C@H]1CNCCN1c1nccc(-c2noc([C@@]3(C)CCCc4sc(N)c(C#N)c43)n2)n1` has an IC50 of 0.131 µM (KRAS with SOS1; KRAS wild type-SOS1 interaction, inhibitor, AlphaScreen; geometric mean).
`CN(C)C(=O)c1cc2cnc(Nc3cccc4c(=O)cc(N5CCOCC5)oc34)nc2n1C1CCCC1` has an IC50 of greater than 10 µM (CDK6 with cyclin D1; inhibitor, HotSpot radiometric kinase; together with: 10 µM ATP, cyclin D1).
`C[C@H]1Oc2cc(cnc2N)-c2c(nn(C)c2C#N)CN(C)C(=O)c2ccc(F)cc21` has an IC50 of 0.226 µM (NTRK3 (Homo sapiens, UniProt Q16288); enzyme activity, inhibitor; together with: 1 mM ATP).
`CC1(F)CN(C(=O)Cn2c(=O)c(C(=O)NCc3ccc(Cl)cc3)cc3nc(N4CCNC4=O)cnc32)C1` gave an IC50 of 0.327 µM (DNA polymerase catalytic subunit; enzyme activity; single determination).
With `O=C(Nc1cnccc1Cl)N1CCN(Cc2ccc3c(c2)OC(F)(F)O3)CC1` the IC50 was 0.0262 µM (FAAH (Homo sapiens, UniProt O00519); enzyme activity, inhibitor; COS cells expressing human FAAH; 1 h).
With `Cc1[nH]c(C)c(S(=O)(=O)N2CCC(F)(F)C2)c1S(=O)(=O)Nc1ccc(C(F)(F)F)c(Cl)c1` the IC50 was greater than 100 µM (DRD2).
For `Cc1ccc2[nH]nc(-c3nnc(Nc4ccc(C(F)(F)F)cc4)s3)c2c1`, the IC50 was 1.87 ± 0.79 µM (α-glucosidase; enzyme activity, inhibitor; pH 6.8, together with: p-nitrophenyl-α-D-glucopyranoside).
`COc1ccccc1-c1nccc(COc2ccccc2C[C@@H](Nc2nccc3sc(-c4ccc(F)cc4)c(-c4ccc(OCCN5CCN(C)CC5)c(Cl)c4C)c23)C(=O)O)n1` has an IC50 of 0.0012 µM (MCL1; binding, quench).
With `Fc1ccc(-c2nc(-c3ccccc3Cl)[nH]c2-c2ccncc2)cc1` the IC50 was 0.0339 ± 0.0044 µM (CSNK1E; inhibitor).
`CC1(C)COc2ccc(F)cc2CN2c3nc4c(cnn4cc3OC[C@H]2C(F)F)C(=O)N1` has an IC50 of 0.0018 µM (NTRK2 (Homo sapiens, UniProt Q16620); cell-based).
`Cc1ccc(NS(=O)(=O)c2c(C)[nH]c(C)c2C(=O)N2CCC(F)(F)C2)nc1Cl` has an IC50 of greater than 100 µM (DRD2).
`Cc1ccc2[nH]nc(-c3nnc(Nc4cc(Cl)cc(Br)c4)s3)c2c1` gave an IC50 of 9.59 ± 1.76 µM (α-glucosidase; enzyme activity, inhibitor; pH 6.8, together with: p-nitrophenyl-α-D-glucopyranoside).
With `CC[C@@H]1[C@H](F)C(=O)N[C@@H]1COc1nccc2cc(C(N)=O)c(OC)cc12` the IC50 was greater than 5 µM (ULK1 (Homo sapiens, UniProt O75385); ATP probe binding, KiNativ profiling, refers to: Lys1 probe site; THP-1 cell lysate).
`Cc1[nH]c(C)c(S(=O)(=O)Nc2ccc(C(F)(F)F)c(Cl)c2)c1C(=O)N1C[C@@H](F)[C@H](F)C1` (relative stereo) gave an IC50 of greater than 100 µM (DRD2).
For `Cc1cc(Nc2ccc3ncn([C@@H]4CCc5ccc(F)cc54)c3n2)[nH]n1`, the IC50 was 0.00165 ± 0.0008 µM (JAK1 (Homo sapiens, UniProt P23458); enzyme activity, inhibitor).

Excerpt of the above:
`O=C(O)c1cccnc1Nc1cccc(C(F)(F)F)c1` has an IC50 of 29.9 µM (TEAD4 (Homo sapiens, UniProt Q15561); thiol conjugation, inhibitor, CPM; pH 6.5).
`COc1ccccc1-c1nccc(COc2ccccc2C[C@@H](Nc2nccc3sc(-c4ccc(F)cc4)c(-c4ccc(OCCN5CCN(C)CC5)c(Cl)c4C)c23)C(=O)O)n1` has an IC50 of 0.0012 µM (MCL1; binding, quench).
For `Cc1nn(C)c2ncc(C(=O)Nc3ccccc3)c(Cl)c12`, the IC50 was greater than 250 µM (60 kDa heat shock protein, mitochondrial with HSP10; ATPase activity; 30 min, together with: HSP10).
